# Results pooled from the literature.
# Numbered parts are unrelated; each lists some results of a single study.

# Sample 1 — method: universal PBM; form: double-stranded DNA, one strand shown; matrix: in vitro; tested at: not given; reading: higher = stronger binding
# Target: Sal-like protein 4, full length isoform B (SALL4, Homo sapiens, UniProt Q9UJQ4-2, residues 1-616)
# Notes: 8-mer, flanks averaged, mean of replicates
Strand,E-score
GGTAGTAA,0.0945
CATCCTCC,-0.183
GGCATGCC,-0.247
ACTATGCT,0.222
CCCAGTTA,-0.117
CTAATCAC,0.211
TCGTCAAA,0.0838
ACAACGAA,0.131
ACGTACAG,0.0158
ACGATGAA,0.139
AGAGTGTG,-0.0298
ACCGGGTC,-0.296
GAACCGAC,-0.328
AGACAACA,0.116
ATACCCCG,-0.123
CACAAAGG,-0.0259
CGACGGCC,-0.299
AGGACTGG,-0.105
ACACCTAC,0.131
ATCTATCA,0.233
AGTCCTTG,-0.112
CTGGTTAA,0.0923
CATAGTAG,0.135
AAGGGGAC,-0.19

# Sample 2 — method: RNA Bind-n-Seq; form: RNA; matrix: in vitro; tested at: 365 nM; baseline: no-protein control; reading: higher = stronger binding
# Target: RNA binding protein fox-1 homolog 2, RRM domain, GST-SBP tag (RBFOX2, Homo sapiens, UniProt O43251-10, residues 100-194)
# Notes: natural RNA segment, single round, ends assumed
# Target sequence (chain): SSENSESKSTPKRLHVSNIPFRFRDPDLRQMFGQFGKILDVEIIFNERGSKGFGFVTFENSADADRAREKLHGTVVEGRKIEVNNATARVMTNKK
Strand,RBNS enrichment (R)
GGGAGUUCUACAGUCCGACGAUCAAACUUGAAGAAAAAAGCCAAGGGCAAGUUAACUAAGAAGAAAACCCCAGUGAAGUCGGAGUCUUCCCCUGCUGAUCUGAGCCAAUCCGUAAGAGGACCCGUGAGGACACUGGAAUUCUCGGGUGCCAA,0.388
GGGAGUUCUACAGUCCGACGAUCAAGUUGAGGCCCAGAGAAUUUAAAGCACAUGUUCAUUUCUGUUGUCAUGGAUACAAAGCUAGGUUUGUCUCUCAACUCUCAUACUGCCAAAAGUUAAACUAUGAUGCUUAUGGAAUUCUCGGGUGCCAA,0.61
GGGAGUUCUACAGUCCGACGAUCAACCAAAAGCUUCUGCACUUUGCUUCUGUUCUUCCUGUACAAGAAAUGCAAACGGCCACUGCAUUUUAAUGAUUGUUAUUCUUUUAUGAAUAAAAUGUAUGUAGAAACAAUGGAAUUCUCGGGUGCCAA,0.625
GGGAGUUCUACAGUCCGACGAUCUCAUAUUGAAUGUAUUAACAGAUAGCAGUGCAAAAGCAUUCUUCCCAAGAGAAGAGUGUACCAUGCACGUCUGCACCCCAGGCCCUUCCUGAGUCUUCAGGUGCACACAGUGGAAUUCUCGGGUGCCAA,0.378
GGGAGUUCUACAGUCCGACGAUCUUAUCAUCGCCAAAAGGAACGGACUGUGCACUAGAGACUUGCAGCCCACAGCCUUCCGUGUGGGAUCUGCCAGGACAAGCUGGCUAGACCUCUGAGAAGUUGGAGAAGUCUGGAAUUCUCGGGUGCCAA,0.284
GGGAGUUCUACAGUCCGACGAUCUCAAGGUUGAAUUAAAAUGCCUGUGAACUGCAAACUUGCUUAUGAUUGACUUGGUGCAAUAAAGUUCCUUUCUAACCAUUUCUGGUUUAGAAAACAUUCAGCCAUCCUAGUGGAAUUCUCGGGUGCCAA,5.06
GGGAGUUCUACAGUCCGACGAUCCUGUGGUUAUGAAAAUUAGGCCAAGUGAUUUUAUUCCAAAUAUUAUUUAGUUGCCCUCAUUGGGAUCUCCUUUCUGUAAUUCAUCUUGGUUUACUUGAAAAUAAAUAUUUUGGAAUUCUCGGGUGCCAA,0.682
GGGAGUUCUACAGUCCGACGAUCAUCCUCCAUGCCACAUGGUCACUGCUCUCCUCAGGGACCAGGACAAGGUGCUGCUGCUUGCCCAAAUGUUUUCCCAUGGGAUAUGUACCGGAAGGUUUAUCACCACCCUGUGGAAUUCUCGGGUGCCAA,0.371

# Sample 3 — method: protein-binding microarray; form: double-stranded DNA, one strand shown; matrix: in vitro; tested at: not given; reading: higher = stronger binding
# Target: Transcription factor Sp1 (SP1, Homo sapiens, UniProt P08047, residues 1-785, full length assumed)
# UniProt P08047, sequence (whole entry, looked up): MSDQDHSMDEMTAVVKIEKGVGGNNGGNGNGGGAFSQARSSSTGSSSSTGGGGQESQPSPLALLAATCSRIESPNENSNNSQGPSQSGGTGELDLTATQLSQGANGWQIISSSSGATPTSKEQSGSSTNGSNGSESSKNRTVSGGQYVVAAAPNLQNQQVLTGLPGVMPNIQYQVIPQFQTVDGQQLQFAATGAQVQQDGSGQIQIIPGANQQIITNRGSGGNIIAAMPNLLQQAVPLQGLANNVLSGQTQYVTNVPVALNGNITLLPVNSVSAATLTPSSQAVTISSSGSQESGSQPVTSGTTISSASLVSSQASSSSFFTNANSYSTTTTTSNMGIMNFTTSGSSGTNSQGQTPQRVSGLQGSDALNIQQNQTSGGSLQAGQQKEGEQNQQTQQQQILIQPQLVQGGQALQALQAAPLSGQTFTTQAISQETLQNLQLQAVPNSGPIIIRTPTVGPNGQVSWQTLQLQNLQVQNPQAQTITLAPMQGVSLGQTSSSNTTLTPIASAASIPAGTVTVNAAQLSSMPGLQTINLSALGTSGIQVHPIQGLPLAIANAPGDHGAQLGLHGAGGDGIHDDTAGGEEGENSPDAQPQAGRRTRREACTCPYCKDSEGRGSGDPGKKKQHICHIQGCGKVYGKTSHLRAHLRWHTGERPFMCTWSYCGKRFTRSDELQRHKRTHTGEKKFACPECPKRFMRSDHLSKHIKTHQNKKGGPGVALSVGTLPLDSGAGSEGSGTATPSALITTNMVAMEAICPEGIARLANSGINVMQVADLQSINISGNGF
# Notes: k-mer, scored over probes, only values ≥0.25
Strand,E-score
CCTTGTCA,0.265
GGGCGGCA,0.303
CATGTGTA,0.284
ATAATACA,0.295
CTATACCC,0.282
TACGCCCA,0.346
ACCCCTAT,0.311
ATAGAGGG,0.334
CCCGCCCA,0.492
TATCCCCA,0.357
AGGGGCGG,0.491
CCCGCCAC,0.304
AGGGAGGG,0.447
CATAGGGG,0.294
ACTTTATG,0.253
GGGTGGTA,0.311
CATATATA,0.261
CGACATCA,0.254
CCCGCCTA,0.313
GGGGCGTA,0.474
GCCCCTAC,0.292
CAGAAATG,0.253
GGTGGGCA,0.265

# Sample 4 — method: protein binding microarray; form: double-stranded DNA, one strand shown; matrix: in vitro; tested at: not given; baseline: not given; reading: higher = stronger binding
# Target: Histone acetyltransferase KAT6A, both winged helices, GST fusion (KAT6A, Homo sapiens, UniProt Q92794, residues 1-181)
# Notes: 8-mer, flanks averaged, mean of 2 arrays, mostly near background
# Target sequence (chain): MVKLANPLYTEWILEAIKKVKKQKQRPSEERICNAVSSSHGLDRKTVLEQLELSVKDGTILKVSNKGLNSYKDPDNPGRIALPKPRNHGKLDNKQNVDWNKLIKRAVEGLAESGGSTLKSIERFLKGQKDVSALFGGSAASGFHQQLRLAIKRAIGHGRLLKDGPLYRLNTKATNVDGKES
Strand,E-score
AGATATAA,-0.0986
CACTTTGC,-0.0808
CGTCTCAG,-0.0758
ATTGCAGA,-0.0931
CTTTCCGA,0.114
ACTTTCAT,-0.141
AGGCAAAC,-0.134
CTTTTGGA,-0.136
CTCCGAAA,0.0189
CCAGTACA,-0.19
GTTAAAAA,-0.073
ATGTGCGC,0.214
GAAGCCAC,-0.0825
CGAAAAGC,0.111
TGACGTAA,-0.109
ATCGGCTG,0.0328
ATCAAGTA,-0.0592
GTACGACA,-0.142

# Sample 5 — method: RNA Bind-n-Seq; form: RNA; matrix: in vitro; tested at: not given; baseline: input RNA pool; reading: higher = stronger binding
# Target: RING finger protein unkempt homolog, zinc fingers 1-6, GST-SBP tag (UNK, Homo sapiens, UniProt Q9C0B0, residues 30-357)
# UniProt Q9C0B0, sequence (30-357, looked up): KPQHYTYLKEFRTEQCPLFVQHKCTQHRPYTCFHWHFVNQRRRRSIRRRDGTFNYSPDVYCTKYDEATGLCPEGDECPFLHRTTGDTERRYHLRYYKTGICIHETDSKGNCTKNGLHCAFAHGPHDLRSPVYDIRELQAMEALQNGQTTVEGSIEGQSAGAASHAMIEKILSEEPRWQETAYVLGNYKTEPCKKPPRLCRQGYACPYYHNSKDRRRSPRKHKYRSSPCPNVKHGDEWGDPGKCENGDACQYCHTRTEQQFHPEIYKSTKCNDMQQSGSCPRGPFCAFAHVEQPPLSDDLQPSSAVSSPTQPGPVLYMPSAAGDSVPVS
# Notes: RNA with constant flanks, human and mouse sites, ends assumed
Strand,bound/input enrichment [ratio]
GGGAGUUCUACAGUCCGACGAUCUUUACCACUAGAGACUUCUCUAUCCGGUCCCUCGCUGACCGCCUGGGGGACCUGAAUUACCUCAUAUAUGUGUUUCCUGAUCGGCCAAAGGAUGAAGUAUAUUCUAAGUACUACACACCGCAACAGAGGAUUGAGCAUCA,0.17
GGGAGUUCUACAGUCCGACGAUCUAUGGCAUCUCCCUUGCUUGCUGCAGCAGGGAUGGAAGAAAUGUCACUUUCUUUUUAAGCUAGCAAGCUUUUUCUUUUUCUUUUUCUUCUUCUAUUUAAAAAUUCUAAUCAUGGAUGCUUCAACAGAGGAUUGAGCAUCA,6.1
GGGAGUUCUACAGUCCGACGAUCAGAAGGGUGUUUGCAGUUUUGCAGGCCUCUGUGGCCUGGGCUUUCUAUGCUGCGAAUAUUACUAGAAGCUGGAUUCCUUUAAGGAGACUUGUAGUGAAAAUGUUUGUCUGGAUGUUCCUCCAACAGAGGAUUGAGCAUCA,0.324
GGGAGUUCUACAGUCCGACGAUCAGCAAGUUUUAAAAUUUUAAUGUUUUGGCUUUCAUUACUUCAUCUUAAUUAUAGCUUUGUAUGUUACUCUUAUUUAAUAUAAUCUCUAUUGUAUUGAUUUCUUCUGUAUUUACCUUUUGGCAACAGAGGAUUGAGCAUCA,3.69
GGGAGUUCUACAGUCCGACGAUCAAAAUAAUUAAAAACCCAAUGGACUUGUCAACCAUCAAGAAAAGACUUCAGGAGGAUUAUUGCAUGUAUACAAAGCCUGAAGACUUUGUAGCUGAUUUUAGAUUGAUCUUUCAAAACUGUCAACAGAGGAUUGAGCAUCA,0.749
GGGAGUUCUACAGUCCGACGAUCUAGGAGUGCAGCCAGAUGGUUUAGACAAAUAACCUCUGCCUGCCAGCCGUUGGGGUGAUGAUUAGAAUGUUAUUGAAGAUAGUGGUUAUGGUUGGGGCUUAUAAUGCCGACUGCAUUUGACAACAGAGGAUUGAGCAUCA,4.76
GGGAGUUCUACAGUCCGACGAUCGCUGGCUUUCUAUCAUUUUUAUGUUUUAAUGCAAAGGAAAUUUUAAAAUGUUCUGGAAGUGUUUUUGAUUAAGCAAUGCAGCCUAGAAGCAAUGGUUCUGUUCAAUCAUUCAGAUGUUAGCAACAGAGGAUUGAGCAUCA,0.342
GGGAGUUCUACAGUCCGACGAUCCAAAGGAACAAUGUGCAAUUGAUAUGUUUUUAGAUGAGAGAGAAAAAUUAAAGCUAAAAUUAGCUGCAAAGAAGUAUUAAUAAUCACCUCUGCAAAAAUUCUAAGUUGCCAACUGGCAAACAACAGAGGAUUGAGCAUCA,1.14

# Repeated from above (sample 5):
Strand,bound/input enrichment [ratio]
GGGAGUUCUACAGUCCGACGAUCAGAAGGGUGUUUGCAGUUUUGCAGGCCUCUGUGGCCUGGGCUUUCUAUGCUGCGAAUAUUACUAGAAGCUGGAUUCCUUUAAGGAGACUUGUAGUGAAAAUGUUUGUCUGGAUGUUCCUCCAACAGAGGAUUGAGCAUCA,0.324
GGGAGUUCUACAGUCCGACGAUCAGCAAGUUUUAAAAUUUUAAUGUUUUGGCUUUCAUUACUUCAUCUUAAUUAUAGCUUUGUAUGUUACUCUUAUUUAAUAUAAUCUCUAUUGUAUUGAUUUCUUCUGUAUUUACCUUUUGGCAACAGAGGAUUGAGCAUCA,3.69
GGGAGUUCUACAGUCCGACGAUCCAAAGGAACAAUGUGCAAUUGAUAUGUUUUUAGAUGAGAGAGAAAAAUUAAAGCUAAAAUUAGCUGCAAAGAAGUAUUAAUAAUCACCUCUGCAAAAAUUCUAAGUUGCCAACUGGCAAACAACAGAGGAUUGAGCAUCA,1.14
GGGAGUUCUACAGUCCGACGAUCAAAAUAAUUAAAAACCCAAUGGACUUGUCAACCAUCAAGAAAAGACUUCAGGAGGAUUAUUGCAUGUAUACAAAGCCUGAAGACUUUGUAGCUGAUUUUAGAUUGAUCUUUCAAAACUGUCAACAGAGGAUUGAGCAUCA,0.749
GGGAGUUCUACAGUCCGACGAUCUAUGGCAUCUCCCUUGCUUGCUGCAGCAGGGAUGGAAGAAAUGUCACUUUCUUUUUAAGCUAGCAAGCUUUUUCUUUUUCUUUUUCUUCUUCUAUUUAAAAAUUCUAAUCAUGGAUGCUUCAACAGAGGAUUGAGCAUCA,6.1
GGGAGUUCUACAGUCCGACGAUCUAGGAGUGCAGCCAGAUGGUUUAGACAAAUAACCUCUGCCUGCCAGCCGUUGGGGUGAUGAUUAGAAUGUUAUUGAAGAUAGUGGUUAUGGUUGGGGCUUAUAAUGCCGACUGCAUUUGACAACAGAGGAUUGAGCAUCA,4.76
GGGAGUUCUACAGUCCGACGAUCGCUGGCUUUCUAUCAUUUUUAUGUUUUAAUGCAAAGGAAAUUUUAAAAUGUUCUGGAAGUGUUUUUGAUUAAGCAAUGCAGCCUAGAAGCAAUGGUUCUGUUCAAUCAUUCAGAUGUUAGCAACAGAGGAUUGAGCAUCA,0.342
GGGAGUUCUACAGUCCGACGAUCUUUACCACUAGAGACUUCUCUAUCCGGUCCCUCGCUGACCGCCUGGGGGACCUGAAUUACCUCAUAUAUGUGUUUCCUGAUCGGCCAAAGGAUGAAGUAUAUUCUAAGUACUACACACCGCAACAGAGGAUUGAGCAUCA,0.17
